# Published values of several laboratories.
# Numbered parts are unrelated; each lists some results of a single study. Substitutions count along the parent as printed.
# Chain of UniProt P08588 (whole entry, looked up): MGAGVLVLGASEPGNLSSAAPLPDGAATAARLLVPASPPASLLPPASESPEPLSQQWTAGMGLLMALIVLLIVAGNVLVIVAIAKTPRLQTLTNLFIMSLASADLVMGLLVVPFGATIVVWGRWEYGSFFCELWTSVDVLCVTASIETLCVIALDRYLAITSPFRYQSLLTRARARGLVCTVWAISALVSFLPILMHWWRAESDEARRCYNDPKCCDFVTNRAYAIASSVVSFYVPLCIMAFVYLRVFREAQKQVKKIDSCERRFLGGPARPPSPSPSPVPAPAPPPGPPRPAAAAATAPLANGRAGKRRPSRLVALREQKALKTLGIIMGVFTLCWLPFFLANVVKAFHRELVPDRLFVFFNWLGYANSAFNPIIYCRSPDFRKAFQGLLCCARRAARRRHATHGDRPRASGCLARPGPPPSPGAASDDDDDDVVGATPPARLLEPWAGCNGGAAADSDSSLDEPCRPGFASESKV

# Study 1
# Target: CCND3, cyclin fold, Cln2 fusion (human)
# Technique: yeast growth competition, sequencing
# Medium: yeast
# Setting: weak parent motif
# Baseline: not given
# Direction: higher = stronger binding
# Parent: viral docking peptide; YKVKRRLVFGADD
Change,normalised enrichment score
AKVKRRLVFGADD [Y1A],0.0721
YKVKRRLVFGAID [D12I],0.0404
YKVKRRLVFGNDD [A11N],0.287
YKVMRRLVFGADD [K4M],-0.836

# Mixed results
# HLA class I histocompatibility antigen, B alpha chain allele B*39:01: HLA class I histocompatibility antigen, B alpha chain, allele B*39:01 (Homo sapiens, UniProt P01889)
Molecule,target or system,assay,system,setting,quantity,result
HHIWQNLL,"HLA class I histocompatibility antigen, B alpha chain allele B*39:01",peptide-MHC binding,peptide,concentration not given,binding,inactive
CCCN(CCC)C1CCc2c(ccc(O)c2O)C1 (centres unmarked),"Beta-1 adrenergic receptor (ADRB1, Homo sapiens, UniProt P08588)",agonist,,,Emax,77%
RYSIFFDY,"HLA class I histocompatibility antigen, B alpha chain allele B*39:01",peptide-MHC binding,peptide,concentration not given,binding,inactive
C[N+]1(CCC(C(N)=O)(c2ccccc2)c2ccccc2)CCCCC1,Sarcocystis neurona,parasite activity,,"10 µM, 96 h",activity class,inactive

# Some of these lines once more (mixed results):
Molecule,target or system,assay,system,setting,quantity,result
HHIWQNLL,"HLA class I histocompatibility antigen, B alpha chain allele B*39:01",peptide-MHC binding,peptide,concentration not given,binding,inactive
